Assay results of several laboratories.
Numbers after ± are the reported error.

COC(=O)c1ccccc1C1=c2cc3c4c(c2Oc2c1ccc1cccc(O)c21)CCC[N+]=4CCC3.[Cl-]: “fluorescence quantum yield” 0.3% (12.5 mM aqueous NaOH; pH 12.1, 10% DMSO).
CC1(C)C(/C=C/C=C/C=C/C=C2\N(CCCCS(=O)(=O)O)c3ccc4ccccc4c3C2(C)C)=[N+](CCCCS(=O)(=O)[O-])c2ccc3ccccc3c21 — result for “fluorescence quantum yield”: 8.3 ± 0.5% (DMSO).
CC1(C)C(/C=C/C=C/C=C/C=C2\N(CCCCS(=O)(=O)O)c3ccc4ccccc4c3C2(C)C)=[N+](CCCCS(=O)(=O)[O-])c2ccc3ccccc3c21: “fluorescence stability duration” over 2 months (solution; 66 µM, below -20 °C, dark, 800 nm).
Under “fluorescence quantum yield”, COc1ccc2c(c1)sc(-c1ccc(N(C)C)cc1)[n+]2C is recorded as 0.007 (PBS; free dye).
For C=Cc1c(C)c2cc3nc(c4c5[nH]c(cc6nc(cc1[nH]2)C(C)=C6CC)c(C)c5C(=O)C4)[C@@H](CCC(=O)O)[C@@H]3C, “fluorescence emission maximum” read 672 nm (fluorescence spectroscopy; methanol; 1 µM).
COC(=O)c1ccccc1-c1c2ccc(=N)cc-2oc2c1ccc1cccc(O)c12.Cl: “fluorescence quantum yield” 0.11% (12.5 mM aqueous NaOH; pH 12.1, 10% DMSO).
For Nc1ccccc1/C=C/C(=O)c1ccccc1, “fluorescence quantum yield” read 5.5 ± 1% (toluene; baseline: coumarin 153 in ethanol).
Under “fluorescence quantum yield”, Cc1ccc2c(c1)sc(-c1ccc(N(C)C)cc1)[n+]2C is recorded as 0.001 (PBS; free dye).

Repeated from above:
For Nc1ccccc1/C=C/C(=O)c1ccccc1, “fluorescence quantum yield” read 5.5 ± 1% (toluene; baseline: coumarin 153 in ethanol).
